Measurements gathered from unrelated publications.
Compare with care: the assays were run in different laboratories. Values joined by “and” are separate records of one study, mostly repeats; a detail may differ.
Voltage-dependent P/Q-type calcium channel subunit alpha-1A: Voltage-dependent P/Q-type calcium channel subunit alpha-1A (Homo sapiens, UniProt O00555)
Rab GDP dissociation inhibitor beta with Rab1A: Rab GDP dissociation inhibitor beta, with Rab1A (Homo sapiens, UniProt P50395)
UCHL1: Ubiquitin carboxyl-terminal hydrolase isozyme L1 (UCHL1, Homo sapiens, UniProt P09936)
PIK3C3: Phosphatidylinositol 3-kinase catalytic subunit type 3 (PIK3C3, Homo sapiens, UniProt Q8NEB9)

For O=C(Nc1cccc2c(=O)cc(-c3nnn[nH]3)oc12)c1ccc(OCCCCc2ccccc2)cc1, the inhibition was 26.7% and 22.8% and 41.1% and 25.8% and 13.1% (Volume-regulated anion channel subunit LRRC8C, part LRRC8A IL1 chimera (LRRC8C, Homo sapiens, UniProt Q8TDW0, L136K); ion current, inhibitor, whole-cell patch clamp; HCT LRRC8-/- cells; 0.1 µM, -100 mV).
The inhibition of [2H]c1cc(C)c(NC(=O)c2cnc(Nc3cc(N4CCCCC4)nc(C)n3)s2)c(Cl)c1 is reported as > 50% (Platelet-derived growth factor receptor alpha (PDGFRA, Homo sapiens, UniProt P16234); 0.001 µM).
For CNCC[C@H](Oc1cccc2ccccc12)c1cccs1, the inhibition was 13% (Voltage-dependent P/Q-type calcium channel subunit alpha-1A; ion current, antagonist; HEK293; 3 µM).
CC[C@@H]1[C@H](F)C(=O)N[C@@H]1COc1nccc2cc(C(N)=O)c(OC)cc12 gave an inhibition of 20.8% (Ephrin type-A receptor 7 (EPHA7, Homo sapiens, UniProt Q15375); ATP probe binding, KiNativ profiling, refers to: activation loop probe site; THP-1 cell lysate; 0.2 mM).
COc1ccc(F)cc1C(=O)NCc1ccc(-c2nn([C@@H](C)C(F)(F)F)c(N)c2C(N)=O)cc1 has an inhibition of 26.1% (Glycogen synthase kinase-3 beta (GSK3B, Homo sapiens, UniProt P49841); target engagement, competitive chemoproteomics; human PBMCs; 0.01 µM).
The inhibition of CN1C(N)=N[C@](C)(c2cc(NC(=O)c3ccc(F)cn3)ccc2F)CS1(=O)=O is reported as 13% (Voltage-dependent P/Q-type calcium channel subunit alpha-1A; ion current, antagonist; 3 µM).
With C=CS(=O)(=O)Nc1ccc(CCn2cc(C[C@@]3(O)C[C@@H]4c5cc(OCc6cc(C)cc(C)c6)c(OCc6cc(C)cc(C)c6)cc5CCN4[C@@H](C)C3)nn2)cc1 the inhibition was 94.7% (Rab GDP dissociation inhibitor beta with Rab1A; GDI2-Rab1A interaction, NanoLuc complementation; 6.25 µM).
CN[C@H]1CC[C@@H](c2ccc(Cl)c(Cl)c2)c2ccccc21 has an inhibition of 100% (Voltage-dependent P/Q-type calcium channel subunit alpha-1A; ion current, antagonist; HEK293; 30 µM).
CC(C)c1noc2ncc(C(=O)c3ccccc3O)cc12 gave an inhibition of 9.38% and 20.2% and 13% and 14.3% and 7.58% (A-type voltage-gated potassium channel KCND3 (Rattus norvegicus, UniProt Q62897); ion current, inhibitor, whole-cell patch clamp; 10 µM).
Under inhibition, NCc1ccccc1 is recorded as “no inhibition” (S-adenosylmethionine decarboxylase proenzyme (AMD1, Homo sapiens, UniProt P17707); probe labelling, inhibitor, gel-based competitive ABPP; transfected HEK-293T cell lysate; up to 300 µM).
With CC[C@@H]1C(=O)OC[C@@H]1Cc1cncn1C.Cl the inhibition was 12% (Voltage-dependent P/Q-type calcium channel subunit alpha-1A; ion current, antagonist; 3 µM).
For Cc1cc(C)cc(COc2cc3c(cc2OCc2cc(C)cc(C)c2)[C@H]2C[C@](O)(Cc4cn(Cc5cnccn5)nn4)C[C@H](C)N2CC3)c1, the inhibition was 75.6% (Rab GDP dissociation inhibitor beta with Rab1A; GDI2-Rab1A interaction, NanoLuc complementation; 6.25 µM).
O=C(NC1CCC1)[C@H](Cc1c[nH]c2ccccc12)NC(=O)[C@H](CCCCNC(=S)NCCc1nnn[nH]1)NS(=O)(=O)c1cccc(F)c1 gave an inhibition of < 0% (NAD-dependent protein deacetylase sirtuin-2 (SIRT2, Homo sapiens, UniProt Q8IXJ6); deacylase activity; 10 µM, added: NAD+ 500 µM).
Cn1cc(-c2cnc3ccc(NC(=O)Nc4ccc(F)c(Br)c4)cc3n2)cn1 gave an inhibition of 5.1% (Mitogen-activated protein kinase kinase kinase 4 (MAP3K4, Homo sapiens, UniProt Q9Y6R4); kinase binding, KiNativ profiling, refers to: Lys1 peptide; PANC-1 lysate; 1.25 µM).
With COc1ccc(C(=O)OC2CCN(C)CC2)cc1 the inhibition was 2.8% (Trypanosoma cruzi; reporter translation, Renilla luciferase mRNA translation; cell-free extract; 40 µM; reference: DMSO).
With O=C(CCl)Nc1ccccc1Sc1ccc(Cl)cc1 the labelling was 10.2% (UCHL1; covalent, intact protein LC-MS; 12.5 µM).
The inhibition of Cc1cc(-c2ccnc3[nH]cc(F)c23)cc(F)c1[C@@]1(O)[C@H](C)CN(C2CCS(=O)(=O)CC2)C[C@@H]1C is reported as 2.8% (PIK3C3; ATP probe binding, KiNativ, refers to: ATP site; HEK293T cell lysate; 0.1 µM).
The inhibition of CNCC[C@@H](Oc1ccccc1C)c1ccccc1 is reported as 27% (Voltage-dependent P/Q-type calcium channel subunit alpha-1A; ion current, antagonist; HEK293; 3 µM).
The inhibition of Cc1cc(-c2ccnc3[nH]cc(F)c23)cc(F)c1[C@@]1(O)[C@H](C)CN(C(=O)CN)C[C@@H]1C is reported as -13.5% (PIK3C3; ATP probe binding, KiNativ, refers to: ATP site; HEK293T cell lysate; 0.1 µM).
Cc1cc(C)c(NC(=O)C(C#N)=Cc2cccnc2)c(C)c1 has a labelling of 30.3% (UCHL1; covalent, intact protein LC-MS; 12.5 µM).

Repeated from above:
For Cc1cc(C)cc(COc2cc3c(cc2OCc2cc(C)cc(C)c2)[C@H]2C[C@](O)(Cc4cn(Cc5cnccn5)nn4)C[C@H](C)N2CC3)c1, the inhibition was 75.6% (Rab GDP dissociation inhibitor beta with Rab1A; GDI2-Rab1A interaction, NanoLuc complementation; 6.25 µM).
